{"data": "Assay results from different studies", "pyrD": "Dihydroorotate dehydrogenase (quinone) (pyrD, Acinetobacter baumannii, UniProt B7GZW7)", "Kir3.1/Kir3.4": "Kir3.1/Kir3.4 (Homo sapiens, UniProt P48544+P48549)", "SLC6A6 G62A": "Sodium- and chloride-dependent taurine transporter (SLC6A6, Homo sapiens, UniProt P31641, G62A)", "AKR1B1": "Aldo-keto reductase family 1 member B1 (AKR1B1, Homo sapiens, UniProt P15121)", "T1": "riboswitch RNA yjdF aptamer domain (Bacillus subtilis); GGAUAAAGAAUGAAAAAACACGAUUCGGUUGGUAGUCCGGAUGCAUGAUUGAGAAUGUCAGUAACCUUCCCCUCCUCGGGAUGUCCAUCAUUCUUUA", "note": "Protocols differ between the studies behind these lines. Values joined by “and” are separate records of one study, mostly repeats; a detail may differ. ± gives the spread as reported."}
{"SMILES": "O=c1nc(SCc2cc(F)cc(C(F)(F)F)c2)nc(SCc2csc3ccc(Cl)cc23)[nH]1", "target or system": "TOP2B (Homo sapiens, UniProt Q02880)", "assay": "decatenation", "setting": "31.25 µM, replicate 2", "quantity": "decatenated DNA", "result": "1%"}
{"SMILES": "O=C(NC1CCC1)c1ccc2nc(-c3cccc(NS(=O)(=O)NCCN4CCCCC4)c3)cn2c1", "target or system": "GRK4 (Homo sapiens, UniProt P32298)", "assay": "enzyme activity", "setting": "10 µM", "quantity": "remaining activity", "result": "100%"}
{"SMILES": "Cn1cc(-c2ccc(-c3cncc(Cl)c3N3CCC4(CCNC4=O)CC3)cc2)cn1", "target or system": "COLO 205", "assay": "gene expression, microarray, refers to: DHRS12 mRNA", "setting": "concentration not given, 2 h", "how to read": "baseline: untreated cells", "quantity": "log2 fold change", "result": 3.02}
{"SMILES": "COc1cnc2cccc(N3CCc4c(cc(Cn5ccnc5C)cc4-c4cn(C)nc4C(F)(F)F)C3=O)c2c1", "target or system": "HEC108", "assay": "cell growth", "setting": "120 h", "quantity": "EC50", "result": "> 30000 nM"}
{"SMILES": "CC(C)C[C@H](NC(=O)C[C@H](O)[C@H](CC(C)C)NC(=O)[C@H](Cc1c[nH]cn1)NC(=O)CNC(=O)[C@@H](NC(=O)[C@H](C)NC(=O)[C@H](Cc1c[nH]c2ccccc12)NC(=O)[C@H](CCC(N)=O)NC(=O)[C@@H](Cc1ccccc1)NC(=O)COCCOCCNC(=O)CCC(C(=O)O)N1CCN(CC(=O)O)CCN(CC(=O)O)CCN(CC(=O)O)CC1)C(C)C)C(N)=O (stereo partly drawn) [lutetium-177 labelled]", "system": "female BALB/c nu/nu mice, skin", "setting": "intravenous, 100 pmol, 4 h, added: PA 300 µg", "quantity": "tissue uptake", "result": "0.15 ± 0.06 %ID/g"}
{"SMILES": "Cc1cc(Nc2ccc(C(F)(F)F)cc2)n2nc(C(F)(F)F)nc2n1", "target or system": "pyrD", "assay": "enzyme activity, inhibitor, colorimetric HTS, refers to: DCIP reduction", "setting": "3 µM", "how to read": "direction not given", "quantity": "robust Z-score", "result": 17.3}
{"SMILES": "COc1cc(F)ccc1-c1ncnc(Nc2cccc(C[S@](C)(=N)=O)c2)n1", "target or system": "EPHB4 (Homo sapiens, UniProt P54760)", "assay": "kinase activity", "setting": "10 µM, added: 10 µM ATP", "quantity": "remaining activity", "result": "54%"}
{"SMILES": "CCn1cc(-c2cc(Cn3ccoc3=N)cc3c2CCN([C@@H](C)c2cc(OC)ccn2)C3=O)c(C(F)(F)F)n1", "target or system": "HEC108", "assay": "cell growth", "setting": "120 h", "quantity": "EC50", "result": "24.5 nM"}
{"SMILES": "N=C(N)c1ccc(-c2cc3ccc(C(=N)N)cc3[nH]2)cc1", "target or system": "T1, riboswitch RNA yjdF aptamer domain (Bacillus subtilis)", "assay": "fluorescence titration", "quantity": "Kd", "result": "4.5 nM"}
{"SMILES": "CCc1cc(NC(=O)COc2ccc(Cl)cc2Cl)n(C2CCC(F)(F)CC2)n1", "target or system": "Kir3.1/Kir3.4", "assay": "thallium flux, activator", "system": "HEK293", "how to read": "baseline: standard compound", "quantity": "Emax", "result": "76%"}
{"SMILES": "NCCCCC(=O)O", "target or system": "SLC6A6 G62A", "assay": "binding, microscale thermophoresis", "setting": "3.91 µM, room temperature, added: 50 nM labelled protein", "how to read": "higher = more binding", "quantity": "normalised MST signal", "result": 0.0167}
{"SMILES": "O=C(COP(=O)(O)O)[C@@H](O)[C@H](O)[C@H](O)COP(=O)(O)O", "target or system": "Transcription elongation regulator 1 (Homo sapiens, UniProt O14776)", "assay": "thermal proteome profiling, refers to: TCERG1", "system": "HepG2 cell lysate", "setting": "concentration not given, 57 over 37 °C", "how to read": "baseline: compound over control", "quantity": "thermal stability ratio", "result": "0.727 and 0.769 and 0.25"}
{"SMILES": "O=C1S/C(=C\\c2ccc(Cl)cc2)C(=O)N1Cc1nc2ccccc2s1", "target or system": "AKR1B1", "assay": "enzyme activity, inhibitor", "quantity": "Hill slope", "result": -0.488}
{"SMILES": "COc1cc(C(F)(F)F)cc2c(N3CCN4c5ccccc5OC[C@@H]4C3)c(C#N)nnc12 (single isomer, unassigned)", "target or system": "Grm7 (Rattus norvegicus, UniProt P35400)", "assay": "activity in words, positive allosteric modulator", "system": "rat", "setting": "dose not given, added: L-AP4 EC20", "quantity": "activity", "result": "inactive"}
{"SMILES": "NCCS(=O)(=O)O", "target or system": "SLC6A6 (Homo sapiens, UniProt P31641, S402A)", "assay": "binding, microscale thermophoresis", "setting": "1.95 µM, room temperature, added: 50 nM labelled protein", "how to read": "higher = more binding", "quantity": "normalised MST signal", "result": -0.0066}
{"SMILES": "CC[C@H](C)[C@@H]1NC(=O)[C@H](C)NC(=O)[C@H]([C@@H](C)CC)NC(=O)[C@H](CCC(N)=O)NC(=O)[C@H](C)NC(=O)[C@H](CCCNC(=N)N)NC(=O)[C@H](C(C)C)NC(=O)[C@H](CC(C)C)NC(=O)[C@H](CCC(=O)O)NC(=O)[C@H](CCCNC(=N)N)NC(=O)CNC(=O)[C@@H](NC(=O)[C@H](CC(C)C)NC(=O)[C@H](CCCCN)NC(=O)[C@@H](NC(=O)[C@@H](NC(=O)[C@H](CCC(=O)O)NC(=O)[C@H](CCC(=O)O)NC(=O)[C@H](CCSC)NC(=O)[C@H](Cc2c[nH]c3ccccc23)NC(=O)[C@H](CO)NC(=O)[C@@H](N)CC(=O)O)C(C)C)[C@@H](C)CC)CSSC[C@@H]2NC(=O)[C@@H](NC(=O)[C@H](CCCCN)NC(=O)[C@H](CC(N)=O)NC(=O)[C@H](C)NC(=O)[C@H](CC(C)C)NC(=O)[C@H](C)NC(=O)[C@H](CO)NC(=O)[C@H](Cc3ccc(O)cc3)NC(=O)[C@H](CC(C)C)NC(=O)[C@H](CCC(N)=O)NC(=O)c3ccc(-c4c5ccc(=[N+](C)C)cc-5oc5cc(N(C)C)ccc45)c(C(=O)[O-])c3)CSSC[C@H](NC(=O)CNC(=O)[C@H](C(C)C)NC(=O)[C@H](Cc3c[nH]cn3)NC2=O)C(=O)N[C@@H]([C@@H](C)O)C(=O)N[C@@H](CCCCN)C(=O)N[C@@H](CCCNC(=N)N)C(=O)N[C@@H](CO)C(=O)N[C@@H](CC(C)C)C(=O)N[C@@H](C)C(=O)N[C@@H](CCCNC(=N)N)C(=O)N[C@@H](Cc2ccccc2)C(=O)N[C@H](C(=O)O)CSSC[C@@H](C(=O)NCC(=O)N[C@@H](CCSC)C(=O)N[C@@H](CO)C(=O)N[C@H](C(=O)N[C@@H](Cc2c[nH]c3ccccc23)C(=O)N[C@@H](CO)C(=O)O)[C@@H](C)O)NC1=O", "target or system": "Relaxin receptor 1 (RXFP1, Homo sapiens, UniProt Q9HBX9)", "assay": "binding, NanoBRET", "setting": "added: relaxin 10 µM", "quantity": "dissociation plateau", "result": "17.9%"}
{"SMILES": "Nc1nc2c(ncn2[C@@H]2O[C@H](COP(=O)(O)O)[C@@H](O)[C@H]2O)c(=O)[nH]1", "target or system": "GUK1 (Homo sapiens, UniProt Q16774)", "assay": "enzyme activity, NADH-coupled", "setting": "1000 µM, added: NaCl 10 mM", "quantity": "reaction velocity", "result": "0.0872 µM/s and 0.0876 µM/s and 0.0993 µM/s"}
{"SMILES": "O=C(COc1ccc(Cl)cc1Cl)Nc1cc(C2CCC2)nn1C1CCC(F)(F)CC1", "target or system": "Kir3.1/Kir3.4", "assay": "thallium flux, activator", "system": "HEK293", "how to read": "baseline: standard compound", "quantity": "Emax", "result": "< 10%"}
{"SMILES": "Cc1nc2nc(C(C)(F)F)nn2c(Nc2ccc(C(F)(F)F)cc2)c1F", "target or system": "pyrD", "assay": "enzyme activity, inhibitor, colorimetric HTS, refers to: DCIP reduction", "setting": "3 µM", "how to read": "direction not given", "quantity": "robust Z-score", "result": 18.6}
{"SMILES": "N[C@@H](CC(=O)O)C(=O)Nc1ccc2ccccc2c1", "target or system": "rat aminopeptidase III", "assay": "substrate", "setting": "concentration not given, pH 7.0", "quantity": "hydrolysis", "result": "inactive"}
{"SMILES": "Cc1c(-c2ccc(N3CCc4cccc(C(=O)Nc5nc6ccccc6s5)c4C3)nc2C(=O)O)cnn1CC12CC3(C)CC(C)(C1)CC(OCCNCC[C@H](O)CO)(C3)C2", "system": "beagle dog, male, anaesthetised", "setting": "intravenous infusion, 0.3 mg/kg/min, 15 min", "how to read": "baseline: vehicle", "quantity": "dP/dt at 50 change", "result": "1%"}
{"SMILES": "O=C(CN1C(=O)S/C(=C\\c2cccc(Br)c2)C1=O)c1ccc([N+](=O)[O-])cc1", "target or system": "AKR1B1", "assay": "enzyme activity, inhibitor", "quantity": "Hill slope", "result": -0.586}
{"SMILES": "CCCCC[C@H](O)/C=C/[C@H]1[C@H](O)CC(=O)[C@@H]1C/C=C\\CCCC(=O)O", "target or system": "PTGER1 (Homo sapiens, UniProt P34995, Y99A)", "assay": "IP1 accumulation, agonist", "system": "AD293", "setting": "1 h, EP1 Y99A mutant", "quantity": "Emax", "result": "102 ± 3.8%"}
{"SMILES": "NC/C(=C\\F)COc1cccc(Cn2c(=S)[nH]c(=O)c3[nH]cnc32)c1", "target or system": "Myeloperoxidase (MPO, Homo sapiens, UniProt P05164)", "assay": "H2O2 consumption, inhibitor, H2O2 electrode", "setting": "0.25 µM, 0.3 s", "quantity": "H2O2 concentration", "result": "-0.318 µM"}
{"SMILES": "Nc1ncnc2c1ncn2[C@@H]1O[C@H](COP(=O)(O)CP(=O)(O)OP(=O)(O)O)[C@@H](O)[C@H]1O", "target or system": "P2X purinoceptor 1 (P2RX1, Homo sapiens, UniProt P51575, K215A)", "assay": "saturation binding", "system": "HEK293", "setting": "1 nM", "quantity": "specific binding", "result": "160 CCPM and 204 CCPM"}
{"SMILES": "CN1CCN(c2cc(-c3ccncc3)c(-c3ccc4ccccc4c3)nn2)CC1", "target or system": "PTGER3 (Homo sapiens, UniProt P43115)", "assay": "agonist, FLIPR", "setting": "12.5 µM", "quantity": "activation", "result": "-0.5%"}
{"SMILES": "Cc1ccc(C(C)C)cc1O", "target or system": "uncharacterized protein (Solanum tuberosum, UniProt M0ZZL3)", "assay": "inhibitor, UDP-Glo", "setting": "added: 100 µM UDP-glucose", "quantity": "reaction velocity", "result": "0 nmol/min/mg"}
{"SMILES": "[H]/N=C(/N)NCC(=O)O", "target or system": "SLC6A6 G62A", "assay": "binding, microscale thermophoresis", "setting": "1 mM, room temperature, added: 50 nM labelled protein", "how to read": "higher = more binding", "quantity": "normalised MST signal", "result": -0.00235}
{"SMILES": "CC(=O)Nc1ccc(O)cc1", "target or system": "BRD4 (Homo sapiens, UniProt O60885)", "assay": "19F NMR, refers to: tyrosine 119", "setting": "1470 µM", "how to read": "baseline: free protein", "quantity": "chemical shift change", "result": "0.053 ppm"}
{"SMILES": "CN1CCC(c2cc(-c3ccncc3)c(-c3ccc(F)cc3)[nH]2)CC1", "target or system": "Plasmodium falciparum", "assay": "LDH colourimetric", "system": "3D7 Hyp1-Nluc", "setting": "2 µM, 72 h", "how to read": "baseline: DMSO", "quantity": "parasite growth", "result": "82.9%"}
{"SMILES": "CC1=NN(c2ccc(Cl)cc2)C(=O)C1=NNc1ccc(S(N)(=O)=O)cc1", "target or system": "bovine α-glucosidase", "assay": "enzyme activity, inhibitor, glucose oxidase", "setting": "500 µg/mL, added: maltose", "quantity": "inhibition", "result": "52.2%"}
{"SMILES": "c1ccc(-c2n[nH]cc2-c2ccnc3ccccc23)nc1", "target or system": "Cyclin-dependent kinase 1 (CDC28, Candida albicans, UniProt P43063)", "assay": "kinase binding, competitor, MIB/MS competition, refers to: CDC28", "system": "Candida albicans cell lysate", "setting": "100 nM", "how to read": "baseline: DMSO", "quantity": "log2 fold change", "result": 1.38}
{"SMILES": "Cn1c[n+]([C@@H]2O[C@H](COP(=O)(O)OP(=O)([O-])OP(=O)(O)OC[C@H]3O[C@@H](n4cnc5c(=O)[nH]c(N)nc54)[C@H](O)[C@@H]3O)[C@@H](O)[C@H]2O)c2nc(N)[nH]c(=O)c21", "target or system": "DCPS (Homo sapiens, UniProt Q96C86)", "assay": "substrate, HPLC", "setting": "0.04 mM, 1 h, 37 °C", "quantity": "hydrolysis", "result": "98.2 ± 1.8%"}
